Measurements from different studies.
Parts stem from different laboratories: compare values within a part only.

Set 1 — method: protein-binding microarray; molecule type: double-stranded DNA, one strand shown; matrix: in vitro; concentration: 2540 nM top; setting: 60-bp whole probe; together with: salmon DNA 0.4 mg/ml; relative to: random background probes; direction: higher = stronger binding; endpoint: fitted relative affinity; all sequences stand within: GCCTAGCAC … GTCTTGATTCGCTTGACGCTGCTG
Target: Interferon regulatory factor 3, full length, phosphomimetic (IRF3, Homo sapiens, UniProt Q14653, residues 1-427, S386D/S396D/S398D/S402D/T404D/S405D)
Construct (chain): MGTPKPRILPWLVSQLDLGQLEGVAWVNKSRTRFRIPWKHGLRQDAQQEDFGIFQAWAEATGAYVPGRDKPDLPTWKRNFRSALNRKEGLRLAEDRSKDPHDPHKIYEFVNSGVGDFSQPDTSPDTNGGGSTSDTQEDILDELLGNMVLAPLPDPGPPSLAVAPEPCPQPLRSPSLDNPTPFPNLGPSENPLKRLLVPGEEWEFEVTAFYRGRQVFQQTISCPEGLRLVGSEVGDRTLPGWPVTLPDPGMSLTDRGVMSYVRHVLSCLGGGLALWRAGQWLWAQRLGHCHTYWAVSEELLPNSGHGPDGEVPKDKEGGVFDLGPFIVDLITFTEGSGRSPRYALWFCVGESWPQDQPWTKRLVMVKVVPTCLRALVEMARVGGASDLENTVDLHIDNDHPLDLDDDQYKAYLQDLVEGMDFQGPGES
TTAGGTTTTGGGTATCGGTTAGTGCTA: 1.38 z-score
TTAGATATTAGTTTCGATTAGTGCTAG: 4.39 z-score
GACGGTAACGGGACTGGGGACGTGCTA: -0.654 z-score
CTTGTTCTTAGCTTGGGTCTGTGCTAG: 0.309 z-score
GACGATCTGGGGTATCGAGACGTGCTA: -0.347 z-score
TCGCACACATACGGCTTCTCGTGCTAG: -0.0553 z-score
TTAGAACTGAGTCTCGATAAGTGCTAG: -0.413 z-score
GACGGTTTCGGTATCGCGACGTGCTAG: 7.73 z-score
TTCCAACTCTGTTTTCGCTTGTGCTAG: 1.26 z-score
CAGTTTTCCTATGTCATTTAGTGCTAG: 3.73 z-score
TTAGATCTCGGTATCGATTAGTGCTAG: 1.09 z-score
TTAGGTATCCTTCGCCTTTAGTGCTAG: 1.12 z-score
TTAGGACTGCTTCACCTTTAGTGCTAG: -0.122 z-score
TTACGACTGCTACTGCTTTAGTGCTAG: -0.584 z-score
GACGGTATCGGGTTTCGGTACGTGCTA: 4.09 z-score
TTAGGTTTCCATTCCCTTTAGTGCTAG: 8.75 z-score
TCAATGTTCCTTATTTAACTGTGCTAG: 2.6 z-score
TTAGCTATCAGTATCGATTAGTGCTAG: 1.57 z-score
CTACGCCTGCAGGTGAGCCGGTGCTAG: -0.741 z-score
GACGGTTTCTGGTTTCGGGACGTGCTA: 4.25 z-score
TTAGAACTGAGTTTCAATTAGTGCTAG: 0.527 z-score
GACGGACTGGGGACTGTGGACGTGCTA: -0.855 z-score

Set 2 — method: protein-binding microarray; molecule type: double-stranded DNA, one strand shown; matrix: in vitro; concentration: not given; direction: higher = stronger binding; endpoint: E-score
Target: Myc proto-oncogene protein, bHLH-zipper, MAX partner unstated (MYC, Homo sapiens, UniProt P01106, residues 368-449)
Chain of UniProt P01106 (368-449, looked up): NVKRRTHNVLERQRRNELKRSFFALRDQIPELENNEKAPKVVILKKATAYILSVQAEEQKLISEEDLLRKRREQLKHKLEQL
Setting: k-mer, scored over probes, only values ≥0.25
ACTCACGC: 0.289
ACATGAGC: 0.266
CGTGCGTC: 0.431
AGGAGGGG: 0.331
CGCGTGAC: 0.425
GCCCACGC: 0.4
ACGTGGAC: 0.432
ACGTGGTA: 0.444
AACGCGTG: 0.445
AAACGAGG: 0.275
ACGTCGGC: 0.254
ACACACGC: 0.378
ATCATGCG: 0.34
CACTCCCC: 0.287
GTGTAGCA: 0.313
CTCTCCAC: 0.253
CACGATGA: 0.316
CTCGCGTC: 0.274
CTACACGC: 0.374
CGAGGACC: 0.285
CGTGGGAA: 0.391
CATGCCAC: 0.378
CAGCGTGG: 0.423
CATGACGC: 0.288
ACGTTGCC: 0.312

Set 3 — method: RNA Bind-n-Seq; molecule type: RNA; matrix: in vitro; concentration: 200 nM; setting: whole 134-nt RNA, ends assumed; together with: 150 mM LiCl; relative to: input library; direction: higher = stronger binding; endpoint: log2 enrichment; all molecules: 7-deaza-guanosine replaces G
Target: Fragile X messenger ribonucleoprotein 1, C-terminal low-complexity region (Fmr1, Mus musculus, UniProt P35922)
All sequences stand within: GGGAGUUCUACAGUCCGACGAUC … UGGAAUUCUCGGGUGUCAAGG
AAGUCCUGUGCUACACAUCGUAUGUACCGAAUCGGUUUUUUUGGAGGAAAAAAAGGAAAGUAUUAUGUUACGCCGUUCGGAUCUGCACUU: -2.31
UGUGCUACACAUCGUAUGUACCGAAUCGGGGUUUUUUUGGGGUUUUUGGGGUUUUUUUGGGGAAAGUAUUAUGUUACGCCGUUCGGAUCU: 1.76
CACAGACAACACGCACCCACACAGACACAGAGGGAAGGGGUUGGGAUGGGGACAGGGUGCACAGCAGGGCGGGGGAGGACCCCAGCCCCU: 1.68
AAGUCCUGUGCUACACAUCGUAUGUACCGAAUCGGGGAGGGGUUUGGGGAAAGGGGAAAGUAUUAUGUUACGCCGUUCGGAUCUGCACUU: -0.562
CUCAAGUCCUGUGCUACACAUCGUAUGUACCGAAUCGGCCGGGCCGGGGCCGGGAAAGUAUUAUGUUACGCCGUUCGGAUCUGCACUUCC: 0.491
CUCAAGUCCUGUGCUACACAUCGUAUGUACCGAAUCGGUGGUUUUUUUGGAGGAAAGUAUUAUGUUACGCCGUUCGGAUCUGCACUUCCA: 0.99
UGGCCUGCACAUUCAGCUGCAUGAUGAAGUUCACUGUCAAGGACUGUGAUCCCACCACUGGGGAGACUGAUGACGAAGGCUAUGAGGAUG: -2.84
UGGGAGGUGGAUUUUGUUUAUUUUUUUAGCUCAUUUCCAGGGGUGGGAAGUUUUUUUUAAUAUGUGUCAUGAAUAAAGUUGUUUUUGAAA: 0.594
CAAGUCCUGUGCUACACAUCGUAUGUACCGAAUCGGAAAGGAAAAAGGAAAAAGGAAAGUAUUAUGUUACGCCGUUCGGAUCUGCACUUC: -0.814
AGUCCUGUGCUACACAUCGUAUGUACCGAAUCGGGGAGGGGUUUUUGGGGUUUGGGGAAAGUAUUAUGUUACGCCGUUCGGAUCUGCACU: -1.22
UAACUUUAGAGGCGGAUCUGAUGGAUAUGGCAGUGGACGUGGAUUUGGGGAUGGCUAUAAUGGGUAUGGAGGAGGACCUGGAGGUGGCAA: 0.124

Set 4 — method: universal PBM; molecule type: double-stranded DNA, one strand shown; matrix: in vitro; concentration: 600 nM; direction: higher = stronger binding; endpoint: E-score
Target: Sal-like protein 4, full length isoform A (SALL4, Homo sapiens, UniProt Q9UJQ4, residues 1-1053)
Chain of UniProt Q9UJQ4 (whole entry, looked up): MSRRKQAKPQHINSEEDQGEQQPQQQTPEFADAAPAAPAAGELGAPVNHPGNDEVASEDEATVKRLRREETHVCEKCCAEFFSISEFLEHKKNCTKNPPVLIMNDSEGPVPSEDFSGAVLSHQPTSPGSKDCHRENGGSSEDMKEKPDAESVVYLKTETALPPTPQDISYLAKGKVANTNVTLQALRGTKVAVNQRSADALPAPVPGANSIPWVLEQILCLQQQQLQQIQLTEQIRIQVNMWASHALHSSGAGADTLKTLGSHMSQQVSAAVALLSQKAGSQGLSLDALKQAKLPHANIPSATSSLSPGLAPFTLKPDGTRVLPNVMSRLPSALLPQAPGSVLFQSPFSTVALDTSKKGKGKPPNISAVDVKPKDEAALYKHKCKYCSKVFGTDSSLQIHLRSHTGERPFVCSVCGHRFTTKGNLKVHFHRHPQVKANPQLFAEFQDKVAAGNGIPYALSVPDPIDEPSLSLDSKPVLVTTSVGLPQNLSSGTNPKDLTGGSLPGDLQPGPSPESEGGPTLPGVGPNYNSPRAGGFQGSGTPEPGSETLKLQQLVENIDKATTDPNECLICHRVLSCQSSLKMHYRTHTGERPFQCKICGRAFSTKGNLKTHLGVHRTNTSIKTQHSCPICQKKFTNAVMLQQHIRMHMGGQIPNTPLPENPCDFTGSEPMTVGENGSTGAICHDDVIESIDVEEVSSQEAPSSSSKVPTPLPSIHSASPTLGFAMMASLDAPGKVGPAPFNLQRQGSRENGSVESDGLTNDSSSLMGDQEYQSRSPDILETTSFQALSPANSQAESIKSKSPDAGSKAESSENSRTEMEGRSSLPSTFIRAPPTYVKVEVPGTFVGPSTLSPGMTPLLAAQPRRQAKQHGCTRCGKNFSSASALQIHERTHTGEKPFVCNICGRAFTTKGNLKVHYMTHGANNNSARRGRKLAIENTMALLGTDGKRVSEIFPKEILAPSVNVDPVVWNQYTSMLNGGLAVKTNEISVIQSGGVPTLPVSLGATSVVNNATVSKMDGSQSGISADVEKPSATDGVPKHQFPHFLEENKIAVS
Setting: 8-mer, flanks averaged, mean of replicates
ACACGGAT: 0.054
ATGAATTG: 0.263
ATTGTTAG: 0.257
CAGGAACG: -0.148
CTAACCGC: -0.185
ATCTGGAG: -0.0197
GCTTTGCC: -0.173
ATTTCAAC: 0.243
GCACACCA: -0.25
CAACCTGC: -0.236
AAATCACG: 0.151
GTCATTGA: 0.173
CAAATTCG: 0.0628
GGCTGTCA: -0.208
CGCTTCAA: 0.0178
CAAAGCTG: 0.0522
GGATGGAA: -0.033
GCGAAAAC: -0.113

Set 5 — method: protein binding microarray; molecule type: double-stranded DNA, one strand shown; matrix: in vitro; concentration: not given; relative to: not given; direction: higher = stronger binding; endpoint: E-score
Target: Histone acetyltransferase KAT6A, winged helix 1, GST fusion (KAT6A, Homo sapiens, UniProt Q92794, residues 1-85)
Setting: 8-mer, flanks averaged, mean of 2 arrays, mostly near background
Construct (chain): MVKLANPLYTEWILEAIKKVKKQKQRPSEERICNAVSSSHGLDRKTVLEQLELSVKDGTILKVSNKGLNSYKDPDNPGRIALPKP
ACTCGAGC: -0.135
ATTAACCG: 0.204
ATATGGCG: 0.194
CCCAGTAA: -0.0424
AAATCTAT: -0.094
GTTCGCTA: 0.00717
CGAATGTC: -0.0895
AAATCGTC: 0.0315
ACAGAAGA: -0.11
GTCCGCTA: 0.118
GATTTAAA: -0.0652
CAGGGGCG: 0.151
CGAGAGCC: 0.0251
CCGTACAC: 0.174
CCTACGCG: 0.288
GGGAGCCC: 0.174
CAATGTTC: -0.056
CGCGGGAA: 0.398
CGTTTCTC: -0.00295
AACAACGA: -0.158
CCTCATAC: -0.19
AAATGTGG: -0.198
TGCGAAAA: 0.106
CCCTCACC: -0.0826
AAGACTGG: -0.0648

Set 6 — method: RNA Bind-n-Seq; molecule type: RNA; matrix: in vitro; concentration: not given; relative to: input RNA pool; direction: higher = stronger binding; endpoint: bound/input enrichment
Target: RING finger protein unkempt homolog, zinc fingers 1-6, GST-SBP tag (UNK, Homo sapiens, UniProt Q9C0B0, residues 30-357)
Setting: RNA with constant flanks, human-mouse chimeric sites, ends assumed
All sequences stand within: GGGAGUUCUACAGUCCGACGAUC … CAACAGAGGAUUGAGCAUCA
Target sequence (chain): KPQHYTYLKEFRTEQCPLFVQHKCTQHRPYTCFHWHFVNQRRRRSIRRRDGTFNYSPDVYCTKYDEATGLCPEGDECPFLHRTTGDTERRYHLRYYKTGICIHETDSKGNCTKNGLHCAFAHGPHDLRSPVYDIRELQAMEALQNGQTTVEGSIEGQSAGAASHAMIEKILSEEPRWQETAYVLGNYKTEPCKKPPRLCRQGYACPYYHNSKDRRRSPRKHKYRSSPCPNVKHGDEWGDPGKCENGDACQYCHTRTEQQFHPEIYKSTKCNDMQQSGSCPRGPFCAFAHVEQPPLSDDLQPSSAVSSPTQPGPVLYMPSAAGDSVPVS
UAAAUUAGGGCUGCCGUUUUCUGUUUCUCCCUGGGCUGCGGAAAGCCAGGCGGUUUUAUCUAGCUUAUACAAGGCUGCUGGUGUUCCCUCUUUUUUUCCACGAGGGUGUUUUUGGCUGCA: 2.93 ratio
CCAAUUGUGGAGCAGUACUUGAAGACAAAAAAGAACUCUAAUAAUUUAAUCAUCAAGUACAUUAGCUGCCGCCUGCUGACACUCAUCAUUAUACUGUUAGCGUGUAUCUACUUGAGCUAU: 0.272 ratio
UUUCUACUGCAGCAAACGAUGCUAAGAAUUAAGGAUCCUAAGAAGUCACUGGAUUUUUAUACGAGGGUUCUUGGAAUGACCCUCCUGCAGAAGCUUGACUUCCCUGCUAUGAAGUUCUCG: 0.108 ratio
GGGACUGAUUCAUUCCAAGGACAGGCCACCCCAUUUGAUGCCUGGACUGAUGACAGUAUGGAAGGGCCUAGUCAAAAUGUUGAAGCUGAGUCAAUUCAGGAUGCCAUGAGUAUGGAAGAG: 0.421 ratio
UUGGAAGGACCAGAGCCCAGUCAGCUCAAACCAUUAGUCAUACAGGCUAUGCCCACCCUAAUAGAACUAAUGAAAGACCCCAGUGUAGUUGUUCGAGAUACAGCUGCGUGGACUGUGGGC: 0.477 ratio
GUUGCCAGGUUCCGGUGCCGUUGGGCUCGGUUCUCUCCUGAGCUACGUGUCUCUACGCUCUCAAUCCCGGUUGGGUAAAACAUGGAUCAGGUAAUGCAGUUUGUGGAGCCCAGCCGGCAG: 0.068 ratio
GGACAUCUGUCAAAUUGUUAUGUUCCUGUGAAACAAGUGAACACUCUGAUACACUUCAUCUGCUUGUACAUUUAACUGAUAGAGAAAUGUAAAUAUGUUAAUCCAAGAUGAAUUCAACUU: 0.21 ratio
UUAAACACCAAGCUGAUGGACUCUGAUGGCCUCCAUCUCUCAGGCACGUGUGCCUUCUCUUAGUCCCUGUUUUCGGGUCACAAAGCUUCUCAGUACUGUGGUUUGAAAGCACCAGCUUUG: 0.12 ratio
GUACUGCAGCAGCAGGGAAAACUGCAGGAAGCUCUGAUGCACUAUAAGGAGGCUAUUCGAAUCAGUCCUACCUUUGCUGAUGCCUACUCCAAUAUGGGAAACACUCUAAAGGAGAUGCAG: 0.117 ratio
ACCUCCCAGGCCUGGGACACCCCACCCCCGCUUUUUGGAAAGUUUUUGGCGUUUCUUUUUUUUAGAAAUACAAAGUGAUUACAGUUUCCCCCGCAAGGGUCUAUCGAAGGGCUUGACGGA: 0.356 ratio
GGCUGCUGGUGACUGUCCUGGAGUGGCCGUGUCACCGGCCGGAGCGCGGCCAGACUAAUUUUAGAAAAUGCCAAGUAGGAAGUUUGUUGAGGGUGAAGUGGUCAGAGGCCGAUGGCCUGG: 5 ratio

Some of these lines once more (set 5):
ATTAACCG: 0.204
ATATGGCG: 0.194
CCCAGTAA: -0.0424
AAATCTAT: -0.094
GTTCGCTA: 0.00717
CGAATGTC: -0.0895
AAATCGTC: 0.0315
ACAGAAGA: -0.11
GTCCGCTA: 0.118
GATTTAAA: -0.0652
CAGGGGCG: 0.151
CGAGAGCC: 0.0251
CCGTACAC: 0.174
CCTACGCG: 0.288
GGGAGCCC: 0.174
CAATGTTC: -0.056
CGCGGGAA: 0.398
CGTTTCTC: -0.00295
AACAACGA: -0.158
